Experimental data gathered from unrelated publications.
Lines come from different studies, so protocols differ. Values joined by “and” are separate records of one study, mostly repeats; a detail may differ. ± gives the spread as reported.
Oprm1: Mu-type opioid receptor (Oprm1, Rattus norvegicus, UniProt P33535)
Chain of UniProt P33535 (whole entry, looked up): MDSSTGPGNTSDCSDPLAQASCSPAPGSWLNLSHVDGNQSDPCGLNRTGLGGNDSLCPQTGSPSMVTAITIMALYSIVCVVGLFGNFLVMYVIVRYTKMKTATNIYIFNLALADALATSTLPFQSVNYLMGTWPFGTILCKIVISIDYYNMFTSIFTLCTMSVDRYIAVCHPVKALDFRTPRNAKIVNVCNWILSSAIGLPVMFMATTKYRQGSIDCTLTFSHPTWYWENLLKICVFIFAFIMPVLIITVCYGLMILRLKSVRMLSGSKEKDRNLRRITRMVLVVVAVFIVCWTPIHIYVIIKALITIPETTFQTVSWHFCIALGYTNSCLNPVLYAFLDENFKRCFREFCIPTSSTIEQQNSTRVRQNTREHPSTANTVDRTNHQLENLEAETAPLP
lasR: Transcriptional activator protein LasR (lasR, Pseudomonas aeruginosa, UniProt P25084)
sdiA: Regulatory protein SdiA (sdiA, Escherichia coli, UniProt P07026)
Chain of UniProt P07026 (whole entry, looked up): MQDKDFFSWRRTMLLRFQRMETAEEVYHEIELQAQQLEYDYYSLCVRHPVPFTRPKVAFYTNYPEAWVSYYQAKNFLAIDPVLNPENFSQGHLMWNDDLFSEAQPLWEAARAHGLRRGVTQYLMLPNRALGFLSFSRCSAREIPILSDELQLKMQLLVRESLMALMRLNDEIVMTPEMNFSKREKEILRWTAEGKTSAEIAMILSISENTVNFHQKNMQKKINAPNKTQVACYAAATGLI
Uncharacterized hydrolase SAUSA300_2518: Uncharacterized hydrolase SAUSA300_2518 (Staphylococcus aureus, UniProt Q2FDS6)
Chain of UniProt Q9UH17 (whole entry, looked up): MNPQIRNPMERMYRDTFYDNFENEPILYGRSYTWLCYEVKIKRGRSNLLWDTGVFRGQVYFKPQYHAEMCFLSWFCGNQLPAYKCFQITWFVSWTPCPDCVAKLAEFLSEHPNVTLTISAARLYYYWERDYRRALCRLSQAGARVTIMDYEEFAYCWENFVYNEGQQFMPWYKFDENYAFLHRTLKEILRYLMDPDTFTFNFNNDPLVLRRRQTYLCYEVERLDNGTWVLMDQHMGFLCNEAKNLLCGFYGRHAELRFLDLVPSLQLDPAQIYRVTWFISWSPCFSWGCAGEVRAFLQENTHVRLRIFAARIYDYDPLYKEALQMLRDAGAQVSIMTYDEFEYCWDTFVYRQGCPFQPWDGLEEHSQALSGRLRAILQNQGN
Chain of UniProt Q9Y2J8 (whole entry, looked up): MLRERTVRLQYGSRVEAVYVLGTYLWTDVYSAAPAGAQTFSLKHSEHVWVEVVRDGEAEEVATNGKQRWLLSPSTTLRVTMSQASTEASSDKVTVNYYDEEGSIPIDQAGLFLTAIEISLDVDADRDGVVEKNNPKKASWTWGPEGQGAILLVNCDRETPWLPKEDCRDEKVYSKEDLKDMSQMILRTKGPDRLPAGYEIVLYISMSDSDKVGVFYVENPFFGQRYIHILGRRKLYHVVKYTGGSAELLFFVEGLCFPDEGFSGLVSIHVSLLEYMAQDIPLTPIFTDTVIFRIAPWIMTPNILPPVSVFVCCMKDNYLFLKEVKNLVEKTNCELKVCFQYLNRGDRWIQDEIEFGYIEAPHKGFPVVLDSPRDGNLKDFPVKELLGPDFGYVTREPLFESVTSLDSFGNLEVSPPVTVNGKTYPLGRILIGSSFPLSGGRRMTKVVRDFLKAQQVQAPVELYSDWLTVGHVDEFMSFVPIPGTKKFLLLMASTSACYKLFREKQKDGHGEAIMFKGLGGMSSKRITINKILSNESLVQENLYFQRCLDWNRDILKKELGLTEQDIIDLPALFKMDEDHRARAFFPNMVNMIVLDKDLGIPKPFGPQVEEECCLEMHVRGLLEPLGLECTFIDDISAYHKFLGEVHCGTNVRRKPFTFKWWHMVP
Chain of UniProt Q14145 (whole entry, looked up): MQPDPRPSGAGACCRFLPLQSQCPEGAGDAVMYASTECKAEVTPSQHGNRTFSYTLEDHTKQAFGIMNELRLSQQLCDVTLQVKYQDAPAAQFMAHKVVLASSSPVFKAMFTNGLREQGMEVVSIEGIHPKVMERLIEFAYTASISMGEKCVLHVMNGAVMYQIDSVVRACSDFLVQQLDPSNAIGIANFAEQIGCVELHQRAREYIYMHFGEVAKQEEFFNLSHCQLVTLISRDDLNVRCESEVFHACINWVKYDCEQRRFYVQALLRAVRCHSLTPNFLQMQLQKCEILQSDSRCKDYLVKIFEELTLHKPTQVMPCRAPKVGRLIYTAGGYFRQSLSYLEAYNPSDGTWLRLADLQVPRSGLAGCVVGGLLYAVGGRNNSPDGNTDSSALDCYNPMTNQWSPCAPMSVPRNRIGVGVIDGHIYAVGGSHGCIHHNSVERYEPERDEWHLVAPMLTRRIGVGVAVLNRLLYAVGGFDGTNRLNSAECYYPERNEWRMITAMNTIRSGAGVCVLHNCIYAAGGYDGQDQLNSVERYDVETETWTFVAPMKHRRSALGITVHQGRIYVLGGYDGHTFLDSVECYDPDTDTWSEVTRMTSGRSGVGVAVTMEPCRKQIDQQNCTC
Chain of UniProt P30989 (whole entry, looked up): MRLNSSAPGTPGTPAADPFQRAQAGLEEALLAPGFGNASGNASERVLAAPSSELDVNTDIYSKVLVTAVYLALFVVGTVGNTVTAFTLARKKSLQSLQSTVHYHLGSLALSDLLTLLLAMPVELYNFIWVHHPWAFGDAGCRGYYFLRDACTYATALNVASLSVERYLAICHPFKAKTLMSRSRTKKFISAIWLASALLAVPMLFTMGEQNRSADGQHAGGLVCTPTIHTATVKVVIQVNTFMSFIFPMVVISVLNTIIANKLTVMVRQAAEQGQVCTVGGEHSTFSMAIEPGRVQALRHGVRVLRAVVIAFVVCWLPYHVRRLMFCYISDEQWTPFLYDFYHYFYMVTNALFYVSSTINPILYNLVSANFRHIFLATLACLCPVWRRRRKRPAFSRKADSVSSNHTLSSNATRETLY
Chain of UniProt P21554 (whole entry, looked up): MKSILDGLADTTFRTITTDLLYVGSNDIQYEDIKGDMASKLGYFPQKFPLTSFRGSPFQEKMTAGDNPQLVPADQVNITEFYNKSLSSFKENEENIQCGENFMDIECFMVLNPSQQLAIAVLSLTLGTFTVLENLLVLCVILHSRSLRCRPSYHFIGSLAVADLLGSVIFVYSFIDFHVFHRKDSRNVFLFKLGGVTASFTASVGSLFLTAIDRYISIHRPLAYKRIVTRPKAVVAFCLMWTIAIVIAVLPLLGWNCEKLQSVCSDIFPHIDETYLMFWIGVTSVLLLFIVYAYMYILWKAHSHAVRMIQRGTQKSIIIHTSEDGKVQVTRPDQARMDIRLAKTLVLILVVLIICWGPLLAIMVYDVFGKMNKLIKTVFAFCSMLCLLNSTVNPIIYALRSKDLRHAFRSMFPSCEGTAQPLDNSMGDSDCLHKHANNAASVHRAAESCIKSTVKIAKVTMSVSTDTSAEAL
Chain of UniProt P54803 (whole entry, looked up): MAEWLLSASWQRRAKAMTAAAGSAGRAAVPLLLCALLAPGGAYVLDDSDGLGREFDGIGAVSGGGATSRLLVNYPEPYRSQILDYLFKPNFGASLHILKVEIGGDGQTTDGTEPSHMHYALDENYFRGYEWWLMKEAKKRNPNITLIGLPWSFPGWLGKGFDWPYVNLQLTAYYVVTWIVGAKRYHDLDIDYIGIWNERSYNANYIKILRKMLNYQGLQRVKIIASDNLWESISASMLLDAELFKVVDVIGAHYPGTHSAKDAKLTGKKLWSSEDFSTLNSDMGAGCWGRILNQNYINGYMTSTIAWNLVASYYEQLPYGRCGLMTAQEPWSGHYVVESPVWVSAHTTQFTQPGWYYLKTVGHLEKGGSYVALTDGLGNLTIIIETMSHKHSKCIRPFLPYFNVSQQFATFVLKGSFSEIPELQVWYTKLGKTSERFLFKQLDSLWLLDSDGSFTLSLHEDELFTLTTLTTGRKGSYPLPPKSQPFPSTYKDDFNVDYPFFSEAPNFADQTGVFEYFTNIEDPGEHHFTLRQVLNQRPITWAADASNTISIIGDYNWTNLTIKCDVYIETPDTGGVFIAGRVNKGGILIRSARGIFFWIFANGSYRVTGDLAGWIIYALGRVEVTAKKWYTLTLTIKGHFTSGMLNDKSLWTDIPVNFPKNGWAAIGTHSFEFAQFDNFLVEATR
Chain of UniProt Q8K1N1 (whole entry, looked up): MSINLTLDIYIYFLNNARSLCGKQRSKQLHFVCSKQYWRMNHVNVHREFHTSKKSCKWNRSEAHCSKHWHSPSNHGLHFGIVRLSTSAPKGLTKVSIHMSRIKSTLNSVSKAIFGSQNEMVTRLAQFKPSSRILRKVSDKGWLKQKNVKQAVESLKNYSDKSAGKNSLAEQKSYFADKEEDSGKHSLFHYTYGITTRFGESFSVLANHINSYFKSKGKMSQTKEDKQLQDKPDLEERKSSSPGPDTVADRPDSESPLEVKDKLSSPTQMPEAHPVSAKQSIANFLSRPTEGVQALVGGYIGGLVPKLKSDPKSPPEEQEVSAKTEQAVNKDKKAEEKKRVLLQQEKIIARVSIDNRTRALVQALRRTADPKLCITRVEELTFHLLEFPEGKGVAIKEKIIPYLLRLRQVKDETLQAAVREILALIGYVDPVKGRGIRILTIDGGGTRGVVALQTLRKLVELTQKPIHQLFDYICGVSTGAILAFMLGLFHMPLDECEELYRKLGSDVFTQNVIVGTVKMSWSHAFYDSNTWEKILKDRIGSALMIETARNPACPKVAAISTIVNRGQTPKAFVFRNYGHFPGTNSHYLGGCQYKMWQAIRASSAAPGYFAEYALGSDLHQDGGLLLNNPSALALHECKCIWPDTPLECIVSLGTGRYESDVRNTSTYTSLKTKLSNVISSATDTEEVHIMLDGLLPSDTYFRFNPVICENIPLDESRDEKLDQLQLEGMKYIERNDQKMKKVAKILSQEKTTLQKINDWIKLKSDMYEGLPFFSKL

`COc1ccccc1-c1n[nH]c2nc(N[C@H]3CC[C@H](NS(=O)(=O)CC(C)C)CC3)ncc12` has a Hill slope of 1.73 (cyclin 9 (Leishmania donovani, UniProt A0A2D1QVA3); affinity bead binding, bead competition pull-down; Leishmania donovani extract; analogue affinity beads).
For `CCCC[C@H]1CNCCN1C[C@@H]1CCCN1C[C@H](CC1CCCCC1)N1CCN(CCc2ccc(Cl)c(Cl)c2)[C@H]([C@@H](C)O)C1`, the remaining binding was 106 ± 5.02% (Oprm1; radioligand binding; rat brain membranes; 500 nM, pH 7.5, 25 °C, together with: 0.87 nM [3H]DAMGO).
For `O=C1NC(=O)c2c1c1cc(F)c[n+]3c1c1c2c2cc(O)ccc2[n]1[Ru-4]312([N]=C=S)[S+]3CC[S+]1CC[S+]2CC3` (stereo not drawn), the remaining activity was 94% (Serine/threonine-protein kinase Nek11 (NEK11, Homo sapiens, UniProt Q8NG66); enzyme activity; 100 nM, human enzyme, together with: 10 µM ATP; baseline: untreated).
`COCC1CCCCN1C(=O)n1cc(C(O)(c2ccccc2)c2ccccc2)nn1` (stereo not drawn): “SILAC activity ratio” 1.29 (Pnpla8 (Mus musculus, UniProt Q8K1N1); probe labelling, inhibitor, competitive ABPP-SILAC; mouse T cells; concentration not given, 4 h, protein level; baseline: treated over DMSO cells, lower = stronger inhibition).
`CN(C)[C@H]1C[C@@]23CC[C@@]4(O2)C(=CC[C@]2(C)[C@@H](c5ccc6ccncc6c5)CC[C@H]24)C=C3[C@@H](O)[C@@H]1O` gave an inhibition of -3.1% (Mitogen-activated protein kinase kinase kinase 6 (MAP3K6, Homo sapiens, UniProt O95382); ATP probe labelling, inhibitor, KiNativ profiling; 0.1 µM).
`COC(=O)[C@@H](NC(=O)c1nn(Cc2ccc(F)cc2)c2cc(OCCCCNC(=N)N)ccc12)C(C)(C)C` has a maximal efficacy of 144% (Cannabinoid receptor 1, with Gi3 (CNR1, Homo sapiens, UniProt P21554); GTP turnover, agonist, refers to: Gi3 Gα subtype).
`CN(/N=C/c1ccccc1C(=O)O)c1nc(-c2ccccc2Cl)cs1` gave an inhibition of 8.74% (SRM; enzyme activity; 1 µM).
`CCCC[C@H]1CNCCN1C[C@@H]1CCCN1C[C@H](CC1CCCCC1)N1CCN(CCc2ccc(Cl)c(Cl)c2)[C@H]([C@H](C)CC)C1` has a remaining binding of 105 ± 6.43% (Oprm1; radioligand binding; rat brain membranes; 500 nM, pH 7.5, 25 °C, together with: 0.87 nM [3H]DAMGO).
With `CC(C)[C@H]1NC(=O)C[C@H]2/C=C/CCSSC[C@@H](NC1=O)C(=O)N[C@H](Cc1cccc3ccccc13)C(=O)NCC(=O)O2` the inhibition was -1.7% (Vascular endothelial growth factor receptor 3 (FLT4, Homo sapiens, UniProt P35916); enzyme activity, inhibitor; 10 µM).
`N[C@H](C(=O)N1CCCC1)C1CCN(c2nccc3c(-c4ncc(Cl)cc4Cl)cccc23)CC1` has a kcat of 0.241 s⁻¹ and 0.257 s⁻¹ (Protein-arginine deiminase type-2 (PADI2, Homo sapiens, UniProt Q9Y2J8); enzyme activity; 0.2458 µM, low-affinity site, together with: Ca2+ 0.25 mM).
`C=CC(=O)Nc1cc(-c2ccc(C(=O)N3CCCC(O)(CC)C3)cc2)ccc1F` (stereo not drawn) has an unmodified protein of 36% (DNA dC->dU-editing enzyme APOBEC-3B, C-terminal domain (Homo sapiens, UniProt Q9UH17); covalent adduct, intact protein MS; 5 h, 10-fold excess, 250 µM).
For `O=C(CCCCCCCCCN=C=S)CC(=O)N[C@H]1CCOC1=O`, the agonist activity was 119% (lasR; reporter gene, agonist; Pseudomonas aeruginosa PAO-JP2; 100 µM, plasI-LVAgfp reporter; baseline: OdDHL at same concentration).
`CC[C@H](C)[C@H](NC(=O)[C@H](CCCNC(=N)N)NC(=O)[C@H](CCCNC(=N)N)NC(=O)[C@H](CC(C)C)NC(=O)[C@H](Cc1ccccc1)NC(=O)CNC(=O)CNC(=O)[C@@H](N)Cc1ccc(O)cc1)C(=O)N[C@@H](CCCNC(=N)N)C(=O)N1CCC[C@H]1C(=O)N[C@@H](CCCCN)C(=O)N[C@@H](CC(C)C)C(=O)N[C@@H](CCCCN)C(=O)O` gave an Emax of 116% (Probable G-protein coupled receptor 139 (GPR139, Homo sapiens, UniProt Q6DWJ6); GαoA activation, agonist, BRET; HEK293T/17; 40 µM).
The koff of `O=C(O)c1cccc(CP(=O)(O)O)n1` is reported as 0.21 ± 0.02 min⁻¹ (Metallo-beta-lactamase type 2 (blaNDM-1, Klebsiella pneumoniae, UniProt C7C422); enzyme activity, inhibitor; together with: nitrocefin).
For `CC(C)CC(O)(CC(C)C)c1cn(C(=O)N2CCCC2)nn1`, the activity ratio was 1.25 (Lysosomal Pro-X carboxypeptidase (Mus musculus, UniProt Q7TMR0); enzyme activity, inhibitor, competitive ABPP-SILAC, refers to: Prcp; mouse T-cells; concentration not given, 4 h, treated in situ; baseline: DMSO).
The potency ratio of `O=C(CCCOc1ccc(Cl)cc1)N[C@H]1CCOC1=O` is reported as 43 (lasR; reporter gene, antagonist; baseline: IC50 PAO-JP2 over E. coli JLD271).
`CN(C)CCCSC(=S)N1CCN(C(=O)/C=C/c2coc3ccccc3c2=O)CC1` gave an MST response of 842 a.u. (Nucleoprotein (N, Tomato spotted wilt virus, UniProt P25999, R94A); binding, microscale thermophoresis; 0.0153 µM; dose series).
The potency ratio of `O=C(CCc1ccc(C(F)(F)F)cc1)N[C@H]1CCOC1=O` is reported as 220 (lasR; reporter gene, agonist; baseline: EC50 PAO-JP2 over E. coli JLD271).
`CCCCCCCCCCCCCC(=O)CC(=O)N[C@H]1CCOC1=O` gave an Emax of 64.3% (sdiA).
`COc1cc2c(cc1S(=O)(=O)F)C(=O)NCCC2` has a remaining activity of 92.4% and 94.4% and 93.9% (Uncharacterized hydrolase SAUSA300_2518; enzyme activity, inhibitor, fluorogenic substrate; 0.05 µM).
`Cc1cc(O)cc(C)c1C[C@H](N)C(=O)N[C@H](CCCNC(=N)N)C(=O)N[C@@H](Cc1ccccc1)C(=O)N[C@@H](CCCCN)C(=O)NCCCCCCCCCCCCNC(=O)[C@H](Cc1ccccc1)NC(=O)[C@H](CC1CCCCC1)NC[C@@H]1Cc2ccccc2CN1C(=O)[C@@H](N)Cc1ccc(O)cc1` has a selectivity ratio of 2.49 (Oprm1; binding; rat brain membranes; together with: [3H]DAMGO; baseline: Ki mu over Ki delta).
For `O=C(Cc1ccc(Br)cc1)N[C@H]1CCOC1=O`, the IC50 ratio was 14 (lasR; plasI-LVAgfp reporter, antagonist; baseline: pump-active over pump-mutant).
`C=CC(=O)NC[C@H](NC(=O)[C@H](CC1CCCCC1)NC(=O)[C@H](CCC(N)=O)NC(C)=O)C(=O)N[C@@H](CC(C)C)C(=O)N[C@@H](Cc1ccccc1)C(=O)O`: “KD fold reduction” 4 fold (Beta sliding clamp (Escherichia coli, UniProt P0A988, H175G); binding, isothermal titration calorimetry; concentration not given, 25 °C, H175G mutant peptide; baseline: wild-type peptide).
For `C#CCCCCOc1ccc2c(c1)CCCN2C(=O)CCl`, the reactivity ratio was 1.39 (Galactocerebrosidase (GALC, Homo sapiens, UniProt P54803); mass spectrometry profiling; H460 cell lysate; 100 µM over 10 µM, UniProt P54803; baseline: high over low concentration).
`O=C(CCCOc1cccc(Br)c1)N[C@H]1CCSC1=O` gave an Emax of 122% (sdiA).
`Nc1ncnc2c1ncn2[C@@H]1O[C@H](C[C@@H](N)CC[C@H](N)C(=O)O)[C@@H](O)[C@H]1O` gave a cooperativity factor of 0.53 (O-methyltransferase (Sorghum bicolor, UniProt A0A1B6PFV1, W279A); isothermal titration calorimetry; W279A mutant, together with: saturating resveratrol).
With `CS(C)(=O)=Nc1ccc(-c2ccc(-c3nc4cc(O[C@@H]5CO[C@H]6[C@@H]5OC[C@H]6O)[nH]c4cc3F)cc2)cc1` the inhibition was 41% (Neurotensin receptor type 1 (NTSR1, Homo sapiens, UniProt P30989); calcium signal, antagonist; 10 µM).
`CCOC(=O)[C@@H]1Cc2c(cc([N+](=O)[O-])cc2[N+](=O)[O-])[C@H](O)[C@]12C(=O)Nc1ccc(Br)cc12` gave a remaining binding of 100% (Platelet-derived growth factor receptor alpha (PDGFRA, Homo sapiens, UniProt P16234); binding, competition with immobilised ligand; 0.1 µM).
`CN1CCCN(C(=O)c2ccc(S(=O)(=O)F)cc2)c2ccccc21` gave a remaining activity of 113% (Uncharacterized hydrolase SAUSA300_2518; enzyme activity, inhibitor, fluorogenic substrate; 0.1 µM).
For `CC(C)[C@@H]1NC(=O)[C@H](CCC(=O)O)NC(=O)CNC(=O)[C@H]([C@@H](C)O)NC(=O)[C@H](CCC(=O)O)NC(=O)[C@H](CCC(=O)O)NC(=O)[C@H](CC(=O)O)NC(=O)[C@H](C(C)C)NC(=O)[C@H]([C@@H](C)O)NC(=O)CNC(=O)[C@H](CC(=O)O)NC(=O)[C@H](CC(N)=O)NC(=O)[C@H](Cc2ccc(O)cc2)NC1=O`, the fluorescence polarization was 0.99 a.u. and 1 a.u. (Kelch-like ECH-associated protein 1 (KEAP1, Homo sapiens, UniProt Q14145); Keap1-Nrf2 binding, inhibitor, competitive FP; 0.0015 µM, 30 min, together with: Nrf2 peptide probe; lower = stronger inhibition).

For quick reference, copied from above:
`COCC1CCCCN1C(=O)n1cc(C(O)(c2ccccc2)c2ccccc2)nn1` (stereo not drawn): “SILAC activity ratio” 1.29 (Pnpla8 (Mus musculus, UniProt Q8K1N1); probe labelling, inhibitor, competitive ABPP-SILAC; mouse T cells; concentration not given, 4 h, protein level; baseline: treated over DMSO cells, lower = stronger inhibition).
`N[C@H](C(=O)N1CCCC1)C1CCN(c2nccc3c(-c4ncc(Cl)cc4Cl)cccc23)CC1` has a kcat of 0.241 s⁻¹ and 0.257 s⁻¹ (Protein-arginine deiminase type-2 (PADI2, Homo sapiens, UniProt Q9Y2J8); enzyme activity; 0.2458 µM, low-affinity site, together with: Ca2+ 0.25 mM).
For `CC(C)[C@@H]1NC(=O)[C@H](CCC(=O)O)NC(=O)CNC(=O)[C@H]([C@@H](C)O)NC(=O)[C@H](CCC(=O)O)NC(=O)[C@H](CCC(=O)O)NC(=O)[C@H](CC(=O)O)NC(=O)[C@H](C(C)C)NC(=O)[C@H]([C@@H](C)O)NC(=O)CNC(=O)[C@H](CC(=O)O)NC(=O)[C@H](CC(N)=O)NC(=O)[C@H](Cc2ccc(O)cc2)NC1=O`, the fluorescence polarization was 0.99 a.u. and 1 a.u. (Kelch-like ECH-associated protein 1 (KEAP1, Homo sapiens, UniProt Q14145); Keap1-Nrf2 binding, inhibitor, competitive FP; 0.0015 µM, 30 min, together with: Nrf2 peptide probe; lower = stronger inhibition).
The koff of `O=C(O)c1cccc(CP(=O)(O)O)n1` is reported as 0.21 ± 0.02 min⁻¹ (Metallo-beta-lactamase type 2 (blaNDM-1, Klebsiella pneumoniae, UniProt C7C422); enzyme activity, inhibitor; together with: nitrocefin).
The potency ratio of `O=C(CCc1ccc(C(F)(F)F)cc1)N[C@H]1CCOC1=O` is reported as 220 (lasR; reporter gene, agonist; baseline: EC50 PAO-JP2 over E. coli JLD271).
